Measured values pooled from the literature.
A part holds a random share of what one study measured.

Study 1
Target: RNA binding protein fox-1 homolog 2, RRM domain, GST-SBP tag (RBFOX2, Homo sapiens, UniProt O43251-10, residues 100-194)
Technique: RNA Bind-n-Seq
Form: RNA
Medium: in vitro
Tested at: 365 nM
Setting: natural RNA segment, single round, ends assumed
Reference: no-protein control
Reading: higher = stronger binding
Construct (chain): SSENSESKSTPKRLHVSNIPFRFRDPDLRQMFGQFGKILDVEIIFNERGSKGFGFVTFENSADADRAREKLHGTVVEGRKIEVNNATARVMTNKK
For `GGGAGUUCUACAGUCCGACGAUCAAACCCCUAACUCCCUCCAGACACCCAGGGAAUACCCUCUGCCCCACAGGAUUGAAGACUGCUUGGCAGUCCUCCCAAUCCCACACCUCCUGUUUGCCAGGGGAAAGAACUGGAAUUCUCGGGUGCCAA`, “RBNS enrichment (R)” read 0.503.
Under “RBNS enrichment (R)”, `GGGAGUUCUACAGUCCGACGAUCCAAAAUCAGGAUGUUUUUCACUGUCCAUUGCUUUGUGUUUUAAUAAACAAUUUGCAGUGACACUCUGUGUUGGGACUGAGUUCGAACUUGAUCUCAAAGCGCUGAAGUGAUGGAAUUCUCGGGUGCCAA` is recorded as 0.283.
`GGGAGUUCUACAGUCCGACGAUCUUAAUUAGCUAGCUAGAGUCAGUUGAUAUCUCUACCAAGCUGAAGCCUAGUACCUACGAAGCUAUUUCUUUACCAAAGUCUCUUGCUUCUGCUUAUGGUCGUGAGCUGAUUGGAAUUCUCGGGUGCCAA`: “RBNS enrichment (R)” 0.291.

Study 2
Target: TAR DNA-binding protein 43, full length, His tag (TARDBP, Homo sapiens, UniProt Q13148, residues 1-414)
Technique: RNA Bind-n-Seq
Form: RNA
Medium: in vitro
Tested at: 20 nM
Setting: 6-mer, flanks averaged, single round
With: 150 mM KCl
Reference: input library
Reading: higher = stronger binding
`GUUUAC` — result for “6-mer enrichment (R)”: 0.62.
Under “6-mer enrichment (R)”, `CUUAAG` is recorded as 0.627.
For `GUCAUA`, “6-mer enrichment (R)” read 0.635.
For `AGCUAG`, “6-mer enrichment (R)” read 0.862.

Study 3
Target: Ras GTPase-activating protein-binding protein 1, RRM domain (G3BP1, Homo sapiens, UniProt Q13283)
Chain of UniProt Q13283 (whole entry, looked up): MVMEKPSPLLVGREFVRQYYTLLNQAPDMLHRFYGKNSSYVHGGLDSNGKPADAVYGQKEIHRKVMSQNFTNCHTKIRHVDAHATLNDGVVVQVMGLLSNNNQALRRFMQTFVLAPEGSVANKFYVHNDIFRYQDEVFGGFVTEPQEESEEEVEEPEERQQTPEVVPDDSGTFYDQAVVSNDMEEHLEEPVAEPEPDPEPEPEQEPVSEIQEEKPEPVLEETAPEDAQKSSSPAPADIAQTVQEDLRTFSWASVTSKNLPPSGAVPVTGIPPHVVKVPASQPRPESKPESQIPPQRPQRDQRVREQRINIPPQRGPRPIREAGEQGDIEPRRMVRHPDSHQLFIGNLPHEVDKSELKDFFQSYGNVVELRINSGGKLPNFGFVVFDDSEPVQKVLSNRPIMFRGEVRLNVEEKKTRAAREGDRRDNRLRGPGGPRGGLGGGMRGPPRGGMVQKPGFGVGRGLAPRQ
Technique: RNA Bind-n-Seq
Form: RNA
Medium: in vitro
Tested at: 1 µM
Setting: whole 134-nt RNA, ends assumed
With: 150 mM KCl
Reference: input library
Reading: higher = stronger binding
`GGGAGUUCUACAGUCCGACGAUCGCAGGAAGUAAAAACAUAUGGAAAUGCUUCGGAUAGUGGCAGGGGUGGGGGUUGCUAAGGAAAGGGUGGGAUGGGAGUGGGUAAAGAGUUUGGAAUUCUCGGGUGUCAAGG` has a log2 enrichment of 1.17.
For `GGGAGUUCUACAGUCCGACGAUCCUCAAGUCCUGUGCUACACAUCGUAUGUACCGAAUCGGUGGAAAGGUUUUUGGAAAGUAUUAUGUUACGCCGUUCGGAUCUGCACUUCCAUGGAAUUCUCGGGUGUCAAGG`, the log2 enrichment was -0.224.
With `GGGAGUUCUACAGUCCGACGAUCAUUAAGGUCACCGUUGCAGGCCUGGCUGGAAAAGACCCAGUACAGUGUAGCCGUGAUGUGGUCAUUUGUCCUGAUGCCAGCCUUGAAGAUUGGAAUUCUCGGGUGUCAAGG` the log2 enrichment was -0.275.

Mixed results
For `PhoQ, residues 284 288 289 292 302 303 GASLAW`, the fold induction was 3.84 (PhoP, residues 12 14 15 18 19 NNFVT (Escherichia coli, UniProt P23836); Sort-seq, measured: YFP reporter; E. coli; PhoQ-PhoP variant library, with: 10 µM Mg2+; reference: high Mg2+ state, higher = stronger signaling).

Excerpt of the above (mixed results):
For `PhoQ, residues 284 288 289 292 302 303 GASLAW`, the fold induction was 3.84 (PhoP, residues 12 14 15 18 19 NNFVT (Escherichia coli, UniProt P23836); Sort-seq, measured: YFP reporter; E. coli; PhoQ-PhoP variant library, with: 10 µM Mg2+; reference: high Mg2+ state, higher = stronger signaling).
